Published values collected from several papers.
Parts stem from different laboratories: compare values within a part only.

Series 1
Target: Hepatocyte nuclear factor 3-beta, forkhead domain (FOXA2, Homo sapiens, UniProt Q9Y261, residues 142-269)
Technique: protein-binding microarray
Form: double-stranded DNA, one strand shown
Medium: in vitro
Concentration: not given
Notes: k-mer, scored over probes, only values ≥0.25
Reading: higher = stronger binding
Construct (chain): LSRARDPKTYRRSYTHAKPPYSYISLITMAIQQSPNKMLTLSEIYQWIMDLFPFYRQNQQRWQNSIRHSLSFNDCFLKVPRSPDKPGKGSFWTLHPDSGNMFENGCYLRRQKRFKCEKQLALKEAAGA
Sequence | E-score
ACAAATAG | 0.41
CATACACA | 0.334
AATGTGGA | 0.305
TAATGATA | 0.28
AATGTATA | 0.317
AGTAAAGA | 0.273
AGGTAAAT | 0.271
AAATATTT | 0.384
ATATGTAC | 0.396
AGTCATAG | 0.255
ATGTTGAC | 0.347
ATACACTG | 0.286
ATATAATA | 0.376
AAATATAC | 0.318
TATCAACA | 0.379
ATATTTAG | 0.294
ACACATTA | 0.318

Series 2
Target: Prothrombin, mature alpha-thrombin (F2, Homo sapiens, UniProt P00734)
Technique: aptamer microarray, sandwich
Form: DNA with 2'F-ANA
Medium: in vitro
Concentration: 200 nM
Notes: whole 15-mer aptamer, many near background
With: Cy3 exosite-II aptamer, 400 nM
Reading: higher = stronger binding
Sequence: GGTTGGTGTGGTTGG
Modification | mean fluorescence intensity [a.u.]
2'F-ANA at 1 2 5 6 8 9 10 11 12 13 | 54.6
2'F-ANA at 3 6 7 10 11 13 15 | 459
2'F-ANA at 1 5 6 7 8 9 10 12 13 14 15 | 90.3
2'F-ANA at 1 3 4 6 8 10 13 14 | 47.4
2'F-ANA at 2 4 7 10 11 14 | 70.4
2'F-ANA at 2 3 4 5 6 10 11 | 50.1
2'F-ANA at 1 2 3 4 5 6 9 10 12 13 15 | 53.7
2'F-ANA at 2 4 6 11 12 14 15 | 103
2'F-ANA at 3 4 5 8 12 13 14 | 52.8
2'F-ANA at 3 4 6 7 8 9 10 11 14 15 | 201
2'F-ANA at 1 2 7 10 11 13 15 | 59.3
2'F-ANA at 4 6 8 10 15 | 74.6
2'F-ANA at 2 3 7 9 11 12 13 15 | 860
2'F-ANA at 1 7 8 9 10 11 12 | 90.4
2'F-ANA at 1 3 6 7 8 10 11 | 76.7
2'F-ANA at 1 4 8 10 | 88.2
2'F-ANA at 3 5 8 9 11 12 13 15 | 175
2'F-ANA at 7 10 12 13 15 | 236
2'F-ANA at 4 7 8 9 13 14 15 | 92.8
2'F-ANA at 1 3 6 7 8 9 12 13 14 | 116
2'F-ANA at 1 4 5 8 10 13 15 | 46.1
2'F-ANA at 1 3 4 5 9 11 12 13 14 | 47.5
2'F-ANA at 4 6 8 11 14 15 | 79.4

Series 3
Target: RNA binding protein fox-1 homolog 2, RRM domain, GST-SBP tag (RBFOX2, Homo sapiens, UniProt O43251-10, residues 100-194)
Technique: RNA Bind-n-Seq
Form: RNA
Medium: in vitro
Concentration: 365 nM
Notes: natural RNA segment, single round, ends assumed
Baseline: no-protein control
Reading: higher = stronger binding
All sequences stand within: GGGAGUUCUACAGUCCGACGAUC … UGGAAUUCUCGGGUGCCAA
Construct (chain): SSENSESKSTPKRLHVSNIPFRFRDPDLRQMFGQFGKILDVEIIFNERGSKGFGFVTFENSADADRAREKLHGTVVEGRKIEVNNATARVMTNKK
Sequence | RBNS enrichment (R)
AUCUAUCAAUUGUGAAUCUGGCUGCUGGUGUAUAAAAACCUGGAUGUAAAGCUGAGCCUACAGACCUGUCCUCACCAACUGUUUUGUGAUUUCUACUCAACUACAAAGAU | 0.356
UCUUCGGAAGAACCCCAACUAUGAUCUUGAAAAAGUGGCUUCUAGAGACCCUGGCUGCAGCGGAAUUUUUUGUUUUUAGCAGGCUGUCCUGCCUGCUAUGAGGGGUGGAU | 0.926
UCACAAACUCUGCCAAAUUUGUGGAACUAUGAAAUGUAUUAUUUGUAGACAUAAAGACUUGAUUGCUUUCCAGUUUAAUGAAAGCUUAAAUGUCCCUGCGAACCCACAAU | 0.6
AGCACUUGGCUGGUGGAGAGAUUUUUUUCAUUAUGGAGCUAAUAAAGGGUCCCUACGUUUUACAUUGAUUAAUGAAUUAUCACCCAGACAUGUGCAGAUGAAAUGUCAAU | 0.376
UAGAUUUGUAUCCUUGAUGAAUCUGGGGUUUCCAUCAGACUGAACUUACACUGUAUAUUUUGCAAUAGUUACCUCAAGGCCUACUGACCAAAUUGUUGUGUUGAGAUGAU | 0.501
AUCUCCACUCCCCAUGUCUCUGAGGUUCACUCCAGCCACCAUUUCUUUAGGCAGCUCUGCCUUAACCCAGGUUUCGUGUAAGAAACUUAACCUUCUCCCUUCCUACCAAU | 0.664
GCCAGACAAGCCGAGAGCCCCUUCUGUUGUGGGCAGCCUGGGUUUGCAGGCCUGCACAGGCUGGGGAGUCCUCAGGACCUUAGGACCUUCAUCCAGGGGCUGGGCUUCGG | 0.826
AUGAGGCAGGUGAGAGAUGUUUGAAUUUUUCUCUUCCUUUUAGUAUUCUUAGUUGUUCAGUUGCCAAGGAUCCCUGAUCCCAUUUUCCUCUGACGUCCACCUCCUACCCC | 0.404
CUCAAUCUUGACCAGACAAGAGAACAGUUAAGUUCUCUCAGUUGGGUAGUAACUUGAAUACCAGUCUAUUUAUCAGUUGGUUUCAACACAGAGGUUUCAAGUGGAAAGCC | 0.287
GUAUGUCAGCACUUUUGUCCUGUAACUGUAGAUCUGUCUCAAUUGAAGUUAACUCACUAUAUUCGGAAACUUACUGGCCUAGAGAAUUUUAUCCCAGGCAUUCUUAGAUG | 4.18
AGGGACACCUGCCACCAUGGCCAGACCCUGACUGAAUUUCACAUUAAGGCUUUGGAAAGGAGCAAAUAAUAAUGGGAGAAUUAACUCCAAAACUUUGACCUGAAUCAUGU | 0.486
GAGAGGGAAUCAGAGGUGGCUUAGUUCCCUGAAGACAGCCUUAUGCGCUUAAUCCCUGCCUUUGAAAAAUGGGCCAAUACACAACACAGACAAUAAUUUGAAGCGUCUGU | 0.63

Series 4
Target: Ras GTPase-activating protein-binding protein 1, full length (G3BP1, Homo sapiens, UniProt Q13283)
Chain of UniProt Q13283 (whole entry, looked up): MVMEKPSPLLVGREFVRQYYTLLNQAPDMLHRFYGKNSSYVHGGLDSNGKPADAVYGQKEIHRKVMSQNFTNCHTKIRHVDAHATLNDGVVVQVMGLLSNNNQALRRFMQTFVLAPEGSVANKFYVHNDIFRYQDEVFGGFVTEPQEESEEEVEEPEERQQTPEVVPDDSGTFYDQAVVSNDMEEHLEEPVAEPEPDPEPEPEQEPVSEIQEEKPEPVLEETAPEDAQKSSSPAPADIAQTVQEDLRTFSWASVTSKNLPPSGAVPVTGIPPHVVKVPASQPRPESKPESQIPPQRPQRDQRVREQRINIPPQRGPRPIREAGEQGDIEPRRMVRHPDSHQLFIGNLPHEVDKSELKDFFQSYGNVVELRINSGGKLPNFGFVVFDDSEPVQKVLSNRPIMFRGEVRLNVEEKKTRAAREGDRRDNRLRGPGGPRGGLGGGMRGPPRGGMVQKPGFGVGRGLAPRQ
Technique: RNA Bind-n-Seq
Form: RNA
Medium: in vitro
Concentration: 200 nM
Notes: whole 134-nt RNA, ends assumed
With: 150 mM KCl
Baseline: input library
Reading: higher = stronger binding
All sequences stand within: GGGAGUUCUACAGUCCGACGAUC … UGGAAUUCUCGGGUGUCAAGG
Sequence | log2 enrichment
ACCAUGCAGGUGGGCAUCUUUGGGAAGUGGGGCAAGGGGGGGAUAGGGAGGGGGCUAACACUUUGGGAACAGGUGGUCCCAGGUCGUUUC | 1.37
UGGGAGGUGGAUUUUGUUUAUUUUUUUAGCUCAUUUCCAGGGGUGGGAAUUUUUUUUUAAUAUGUGUCAUGAAUAAAGUUUUUUUUGAAA | 0.173
UCCUGUGCUACACAUCGUAUGUACCGAAUCAAACCCCCCCAAAUUUUUAAAUUUUUAAAAAAGUAUUAUGUUACGCCGUUCGGAUCUGCA | 0.321
UGGCAGAGAAAUUGCAGCUGCAGGAGCAGCUCCAGGCAGAAACCGAGCUGUGUGCCGAGGCUGAGGAGCUCCGGGCCCGCCUGACCGCCA | -0.34
CUCAAGUCCUGUGCUACACAUCGUAUGUACCGAAUCGGGAAGGGAAGGAAGGGGAAAGUAUUAUGUUACGCCGUUCGGAUCUGCACUUCC | 0.949
UCCUGUGCUACACAUCGUAUGUACCGAAUCGGGUUUUUGGGUUUUUGGGAAAAAAAGGGAAAGUAUUAUGUUACGCCGUUCGGAUCUGCA | -0.371
CACAGACAACACGCACCCACACAGACACUGAGGGAAGGGGUUGGGAUGGGGACAGGGUGCACAGCAGGGCGGGGUAGGACCCCAGCCCCU | 1.76
CCUGUGCUACACAUCGUAUGUACCGAAUCGGGUUUUUUUGGGAAAAAGGGUUUUUUUGGGAAAGUAUUAUGUUACGCCGUUCGGAUCUGC | -0.992
UGUGCUACACAUCGUAUGUACCGAAUCGGGGCCCCCCCGGGGCCCCCCCGGGGCCCCCCCGGGAAAGUAUUAUGUUACGCCGUUCGGAUC | -1.23
UCCUGUGCUACACAUCGUAUGUACCGAAUCGGGAAAAAAGGGAAAAAAGGAAAAAAGGGGAAAGUAUUAUGUUACGCCGUUCGGAUCUGC | -0.501
GCAGGAAGUCAAAACAAAUGGAAAUGCUUCGGAUAGUGGCAGGGGUGGGGGUUGCUAAGGAAAGGGUGGGAUGGGAGUGGGUAAAGAGUU | 0.856
UCCUGUGCUACACAUCGUAUGUACCGAAUCGGUUUUUGGGGUUUUUGGGGUUUUUGGGGAAAGUAUUAUGUUACGCCGUUCGGAUCUGCA | -0.108
GUCCUGUGCUACACAUCGUAUGUACCGAAUCGGGGAAAGGGGAGGGGUUUUUUUGGGGAAAGUAUUAUGUUACGCCGUUCGGAUCUGCAC | 0.32
UCCUCAAGUCCUGUGCUACACAUCGUAUGUACCGAAUCGGAGGAGGGGAGGAAAGUAUUAUGUUACGCCGUUCGGAUCUGCACUUCCAGC | -0.469

Excerpt of the above (series 2):
Modification | mean fluorescence intensity [a.u.]
2'F-ANA at 2 4 6 11 12 14 15 | 103
2'F-ANA at 3 4 5 8 12 13 14 | 52.8
2'F-ANA at 3 4 6 7 8 9 10 11 14 15 | 201
2'F-ANA at 1 2 7 10 11 13 15 | 59.3
2'F-ANA at 4 6 8 10 15 | 74.6
